Experimental data collected from several papers.
Numbered parts are unrelated; each lists some results of a single study.

Series 1
Target: RNA binding protein fox-1 homolog 2, RRM domain, GST-SBP tag (RBFOX2, Homo sapiens, UniProt O43251-10, residues 100-194)
Technique: RNA Bind-n-Seq
Form: RNA
Medium: in vitro
Concentration: 365 nM
Setting: natural RNA segment, single round, ends assumed
Reference: no-protein control
Direction: higher = stronger binding
Construct (chain): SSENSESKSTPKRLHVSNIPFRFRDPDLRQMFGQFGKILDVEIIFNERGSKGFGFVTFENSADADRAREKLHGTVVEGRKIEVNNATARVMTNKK
Under “RBNS enrichment (R)”, `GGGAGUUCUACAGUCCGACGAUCUUGUUUUGUUUGCAAACAUGUUUUAAAUUAAAUUCGGGUAAUAUUAAACAGUACAUGUUUACAAUACCAAAAAAGAAAAAAUCCACAAAAGCCACUUUAUUUUAAAAUAUUGGAAUUCUCGGGUGCCAA` is recorded as 1.09.
Under “RBNS enrichment (R)”, `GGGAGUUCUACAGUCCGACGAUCUACUGAGAAGGUCCUCCUUCCUCUUGACUUUGUGGUCUGAAACCUGGUCUUACUGUCCAUGUGUGUUUGGGCCCGGAUGGUCAGGGUGGGGAGCAGGGACGGCCAUGGGCUGGAAUUCUCGGGUGCCAA` is recorded as 0.489.
For `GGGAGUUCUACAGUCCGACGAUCGAGGUCUCUGAAGAGCAGGCUCAGGGAAAAGAUGAGUUUUCAGAGCUGAUGUGAUAGUCAGCUUCUCUGGAGUCAACAGGGUGAAUCCUUCCCAAGUCCAGCCAUGCCCAUGGAAUUCUCGGGUGCCAA`, “RBNS enrichment (R)” read 0.415.
Under “RBNS enrichment (R)”, `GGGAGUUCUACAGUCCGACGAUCGGACAGAGGGAGAGAGUCCACUACUGAAAGGAACGCUCAAACCUCCUCACACAGGUCCUUGUGCCUGGGCACUCCCCCGCCCCAUAUGCAUACACACAUACAUGCUUUUGUGGAAUUCUCGGGUGCCAA` is recorded as 0.298.
`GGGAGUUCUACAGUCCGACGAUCAAUAUAUGGCUUUUUCAAAUCAGUUCAGUGAAAAUAGUACAGAUUUAGGUUUACAUAACUACUCUGACAUACUGGAAUUGCAUAUAGAGAUGUUCAGUGGUCGUUUUUCAUGGAAUUCUCGGGUGCCAA`: “RBNS enrichment (R)” 0.4.
`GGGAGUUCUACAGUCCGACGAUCCAAUAAGGGGAGAGUAACCCUGUCUAAUGAAACCUGUGUCUCUGAGAGUAGAGUCACUGGAACACUAAUGAGGAAACUGCACUGUUUUAUUUUAAUUCAGUUGUUAGUGUUGGAAUUCUCGGGUGCCAA` — result for “RBNS enrichment (R)”: 0.388.
`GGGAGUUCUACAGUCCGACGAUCCCACCUCGCCCUGUGUUUCCAGGCCUGCACGUCUGGUCCUUCAGCUGCACAUGGAACUGCAGGGCAGGCUGGCGGGGGGCCUUCAGAUCUCAGAUGAGACUGCACCCCUUUGGAAUUCUCGGGUGCCAA`: “RBNS enrichment (R)” 0.286.
Under “RBNS enrichment (R)”, `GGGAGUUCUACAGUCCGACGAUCCUUGUACUGGGACCAAAGUAAAAAUCCAAGCACAUUCCCCUUGCAGUUAGGGGAGGCCCUACUGCCUUCUCAAAGCAGAGAGGCAGCUUAUCAAACUCAGCCCAAAACUCUGGAAUUCUCGGGUGCCAA` is recorded as 0.503.
`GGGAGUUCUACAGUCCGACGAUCUUCUUUCUUCCUCUGCUGAAGGAAUAAAUUGCUCCUUGACAUUGUAGAGCUUCUGGCACUUGGAGACUUGUAUGAAAGAUGGCUGUGCCUCUGCCUGUCUCCCCCACCGGUGGAAUUCUCGGGUGCCAA` — result for “RBNS enrichment (R)”: 0.631.
`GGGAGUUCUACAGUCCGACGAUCCAAGAUUAGUCCACGAAUGAUCCCCACCUCUUCUGCACAGGAUCCGUGGUCGUGACCCCACUGGCUCUGGCUGUAGCUUGCCAAGGGCACUGGCGUUGCUUGUGACAGCCUGGAAUUCUCGGGUGCCAA`: “RBNS enrichment (R)” 0.696.
`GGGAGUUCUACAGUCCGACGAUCGGUGCAUUCCUGUCCCCCUCGGCCCCAGGCUGGCUCAGCUCUCCAGUGCUGCGGCGCUGUCUUUGCAGCAUUGCCAUGUCACCGUAGCCCCCUUCACUCUUGGAAGUUUGUGGAAUUCUCGGGUGCCAA`: “RBNS enrichment (R)” 0.349.
For `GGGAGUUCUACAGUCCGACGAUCCUGGACCAUUCCUGUCCCUUUGUUACCAUACUGUCUCUGGAGUGAUGGUGUCCUUCCCUGCCCCACCACGCAUGCUCAGUGCCUUUUGGUUUCACCUUCCCUCGACUUGAUGGAAUUCUCGGGUGCCAA`, “RBNS enrichment (R)” read 12.1.

Series 2
Target: Histone acetyltransferase KAT6A, both winged helices, GST fusion (KAT6A, Homo sapiens, UniProt Q92794, residues 1-181)
Technique: protein binding microarray
Form: double-stranded DNA, one strand shown
Medium: in vitro
Concentration: not given
Setting: 8-mer, flanks averaged, mean of 2 arrays, mostly near background
Reference: not given
Direction: higher = stronger binding
Construct (chain): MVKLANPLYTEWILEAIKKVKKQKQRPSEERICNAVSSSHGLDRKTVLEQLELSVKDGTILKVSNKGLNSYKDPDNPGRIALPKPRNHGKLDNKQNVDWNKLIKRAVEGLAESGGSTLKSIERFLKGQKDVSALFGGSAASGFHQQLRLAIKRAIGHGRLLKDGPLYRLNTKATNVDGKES
The E-score of `AAGGCATG` is reported as -0.153.
`GAATACCA` gave an E-score of -0.133.
With `AACCACGG` the E-score was 0.135.
For `GCACCGAC`, the E-score was 0.138.
`ACGCTTCA` gave an E-score of 0.135.
`ACTGGCCG` gave an E-score of 0.153.
The E-score of `ATTTTATA` is reported as 0.0558.
The E-score of `ATACGAGC` is reported as -0.024.
`TCTTACAA` has an E-score of -0.121.
The E-score of `ATACGCTA` is reported as 0.0721.
`CTGAATTA` gave an E-score of -0.0157.

Series 3
Target: RING finger protein unkempt homolog, zinc fingers 1-6, SBP tag (UNK, Homo sapiens, UniProt Q9C0B0, residues 30-357)
Sequence of UniProt Q9C0B0 (30-357, looked up): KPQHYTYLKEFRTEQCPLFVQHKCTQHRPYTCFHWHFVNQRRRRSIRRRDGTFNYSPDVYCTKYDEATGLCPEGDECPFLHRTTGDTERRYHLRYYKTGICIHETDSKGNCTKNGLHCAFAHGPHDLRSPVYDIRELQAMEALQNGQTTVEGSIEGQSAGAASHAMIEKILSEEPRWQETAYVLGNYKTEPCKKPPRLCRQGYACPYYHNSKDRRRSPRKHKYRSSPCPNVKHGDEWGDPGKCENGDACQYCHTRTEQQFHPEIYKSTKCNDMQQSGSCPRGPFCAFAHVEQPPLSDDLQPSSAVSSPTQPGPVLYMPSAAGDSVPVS
Technique: RNA Bind-n-Seq
Form: RNA
Medium: in vitro
Concentration: 100 nM
Setting: RNA with constant flanks, vertebrate orthologous sites, ends assumed
Reference: input RNA pool
Direction: higher = stronger binding
`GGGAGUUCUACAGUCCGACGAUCUCCAGCCUCAGCUGGCUGUUUCGCAGCAUUCCUUACACAGCUAUUUAACAAGUACAAGUGGAGUUAACUUUCAGGAUACAUCUAGGCACUCAGCAUUAUCCUGCAGUCCAGUUGGAGAUGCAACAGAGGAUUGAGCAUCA` gave a bound/input enrichment of 0.197 ratio.
The bound/input enrichment of `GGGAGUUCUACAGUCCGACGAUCCAUUGUACCCUGCUGUAUAAUAAACAAUCUUAGACAUUUAUCAGCUGUUGAUACAAAUGUUAGUCCCUAAUCACUUUUUAUAUGUUUUAAAUUUUUGAAAUUCAAGUGUACCUGCCAUAACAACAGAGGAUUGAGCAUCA` is reported as 1.97 ratio.
With `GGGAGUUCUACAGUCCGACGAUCAGCAGCUCAAGGAUUCAGAACUGGUUUUGCAAAUGCCCCAAGCAGAUAUGGAACAAACGCUCGUGGUCAGCCCCGACCGUAAUAAACACCAUUAUUUAUUAUACUUAAGGGUAUUGACUUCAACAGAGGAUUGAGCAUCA` the bound/input enrichment was 0.289 ratio.
With `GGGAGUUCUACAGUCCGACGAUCCUGAAGCUUUGUGUUUGGCUGCACCUGCGUAAGCUGCUACAAAUAGAAUAAAGAAUUUCAUAGCCUGUAUCUAUCAUUUAGAUGCAUGGAAAAAUGGGCUUUGCACACAAUGGGUUUGGACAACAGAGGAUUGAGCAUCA` the bound/input enrichment was 2.43 ratio.
With `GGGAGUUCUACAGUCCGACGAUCGUUGUGACCCAUUUAACAUACACAGGAAAGUAUCAAAGAAAAAUUUACGUGCAAUCGACUUAGAUGAUGCAGCUUUUCUAAGUGCCAAGUUUGGAAGACAGUUUGUACCUGGUUGGAAGCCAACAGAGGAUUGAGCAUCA` the bound/input enrichment was 1.11 ratio.
`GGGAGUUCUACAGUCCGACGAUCAGAUCUACUUCAUGCCUUGGACUCCUUACAGAACAGACACUCUAAUUGAGUAUUCCUCCCUGGAUGAUUUCCAGAAUUCUCGACAAACGAUCACCUAUAAACUACCACACCGUGUGGAUGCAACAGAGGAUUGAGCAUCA` has a bound/input enrichment of 0.467 ratio.
`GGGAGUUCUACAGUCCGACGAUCGGAAAGUUACAGACCAGACACUGAAAGUAGGAGCACAGGAUCCUGGUUGUCGUCCUCUUUGAGGAACAGAUGUACACCUCUCUUUUCCAGAAGAAGAAGAGAAGGAAGAGAUGAAUCUGCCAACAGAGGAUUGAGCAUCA` has a bound/input enrichment of 0.381 ratio.

Single results of other studies
For `PhoQ, residues 284 288 289 292 302 303 SVTLVV`, the fold induction was 5.94 (PhoP, residues 12 14 15 18 19 TQCLL (Escherichia coli, UniProt P23836); Sort-seq, refers to: YFP reporter; E. coli; PhoQ-PhoP variant library, added: 10 µM Mg2+; reference: high Mg2+ state, higher = stronger signaling).

Excerpt of the above (series 2):
The E-score of `AAGGCATG` is reported as -0.153.
For `GCACCGAC`, the E-score was 0.138.
The E-score of `ATACGCTA` is reported as 0.0721.
